Results pooled from the literature.
A part holds a random share of what one study measured. Substitutions count along the parent as printed.

Study 1 — method: DHFR PCA, deep sequencing; matrix: yeast; with: (+)-ABA 0 µM; relative to: wild-type fitted maximum; reading: higher = stronger binding; measurement: relative binding score
Target: ABI1, truncated, D143A, DHFR fusion (Arabidopsis thaliana)
Notes: methotrexate growth selection, single substitutions
Starting sequence: PYL1, truncated, DHFR fusion (Arabidopsis thaliana); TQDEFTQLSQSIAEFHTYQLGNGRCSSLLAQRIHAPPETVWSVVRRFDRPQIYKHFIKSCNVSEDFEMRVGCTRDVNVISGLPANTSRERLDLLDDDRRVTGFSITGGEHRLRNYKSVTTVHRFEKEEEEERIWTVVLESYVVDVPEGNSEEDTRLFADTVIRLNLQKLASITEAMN
T154H: -6.2%
E127Q: 39.5%
T17I: -3.8%
L166Y: 10.8%
K116T: 13.3%
E128N: 34.3%
V40R: 0.673%
G108M: -0.032%
I133S: 28.6%
V62L: 17.7%
E127S: 31.6%
G148W: 0.723%
A35V: 0.503%
S104G: -0.0252%
L94K: -6.1%
P36W: 3.82%
D48T: 5.85%
T173R: -3.72%
T120K: -2.9%
Y115K: -3.36%

Study 2 — target: CREB3L2, bZIP domain (human); method: DHFR protein complementation; matrix: yeast; relative to: wild-type JUN-FOS pair; reading: higher = stronger binding; measurement: binding fitness
Notes: single substitutions, most at no-binding floor
Starting sequence: JUN, bZIP domain (human); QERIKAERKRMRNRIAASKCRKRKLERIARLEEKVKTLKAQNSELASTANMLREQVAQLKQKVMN; partner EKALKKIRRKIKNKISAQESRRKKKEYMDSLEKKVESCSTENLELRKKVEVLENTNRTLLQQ
Q41L: -1.34 natural log
Q41W: -1.63 natural log
M51W: -1.51 natural log
E33G: -1.51 natural log
L52F: -1.55 natural log
V35A: -1.36 natural log
Q55W: -1.57 natural log
I28G: -1.5 natural log
T48E: -1.46 natural log
A40Y: -1.45 natural log
A29Y: -1.58 natural log
E32M: -1.49 natural log
A49K: -1.55 natural log
K39C: -1.52 natural log
L45K: -1.44 natural log
N42Y: -1.48 natural log
T37K: -1.43 natural log
K36F: -1.39 natural log
R53A: -1.39 natural log
L31I: -1.57 natural log
E54R: -1.51 natural log
S47A: -1.41 natural log
E44F: -1.45 natural log
K36R: -1.51 natural log
K34T: -1.49 natural log

Study 3 — target: CCNB3, cyclin fold, Cln2 fusion (human); method: yeast growth competition, sequencing; matrix: yeast; notes: strong parent motif; relative to: not given; reading: higher = stronger binding; measurement: normalised enrichment score
Starting sequence: SCAPER docking peptide (human); SNARRSLNFGGST; partner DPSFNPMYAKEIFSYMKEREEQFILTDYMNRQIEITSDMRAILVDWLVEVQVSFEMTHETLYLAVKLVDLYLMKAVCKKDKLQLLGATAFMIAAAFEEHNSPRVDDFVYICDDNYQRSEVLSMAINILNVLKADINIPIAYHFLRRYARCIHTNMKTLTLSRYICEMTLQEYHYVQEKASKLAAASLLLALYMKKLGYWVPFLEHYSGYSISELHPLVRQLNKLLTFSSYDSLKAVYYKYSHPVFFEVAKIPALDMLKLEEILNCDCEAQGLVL
S1T: 1.52
N2W: 1.73
L7E: 0.272
L7K: 0.267
L7A: 0.522
A3H: 0.241
S1N: 1.32
R5K F9L: 0.293
N2L: 1.5
G11H: 1.16
G11Q: 1.59
T13Y: 1.14
R4F: 0.0255
R5A: 0.295
S12L: 1.88

Study 4 — method: aptamer microarray, sandwich; molecule type: DNA with 2'F-ANA; matrix: in vitro; concentration: 200 nM; with: Cy3 exosite-II aptamer, 400 nM; reading: higher = stronger binding; measurement: mean fluorescence intensity; oligonucleotide: GGTTGGTGTGGTTGG
Target: Prothrombin, mature alpha-thrombin (F2, Homo sapiens, UniProt P00734)
Notes: whole 15-mer aptamer, many near background
2'F-ANA at 4 5 7 8 11 15: 59.9 a.u.
2'F-ANA at 3 4 6 7 8 12 13 14: 419 a.u.
2'F-ANA at 2 7 8 9 10 11 12 15: 155 a.u.
2'F-ANA at 1 3 5 13 14: 59.1 a.u.
2'F-ANA at 5 10 11: 45.9 a.u.
2'F-ANA at 3 4 8 9 12 13 14 15: 285 a.u.
2'F-ANA at 1 4 7 8 9 11 12 14: 112 a.u.
2'F-ANA at 1 2 3 4 5 8 9 12 14: 86.5 a.u.
2'F-ANA at 4 6 8 9 10 13: 93.2 a.u.
2'F-ANA at 2 3 5 7 8 9 10 11 12 13 14 15: 58.2 a.u.
2'F-ANA at 1 6 7 8 11 13 15: 189 a.u.
2'F-ANA at 2 3 4 5 6 7 8 9 11 15: 75.5 a.u.
2'F-ANA at 1 2 3 4 5 6 7 8 14 15: 56.6 a.u.
2'F-ANA at 5 9 11 14 15: 41.7 a.u.
2'F-ANA at 1 2 5 7 9 11 13: 50.8 a.u.
2'F-ANA at 2 3 5 8 9 14: 55.1 a.u.
2'F-ANA at 3 10 12 13 14: 508 a.u.
2'F-ANA at 1 3 5 7 8 14 15: 45.1 a.u.
2'F-ANA at 4 7 8 9 10 15: 96.6 a.u.
2'F-ANA at 1 2 3 4 7 8 11 14: 89.6 a.u.

Study 5 — method: protein binding microarray; molecule type: double-stranded DNA, one strand shown; matrix: in vitro; concentration: not given; relative to: not given; reading: higher = stronger binding; measurement: E-score
Target: Histone acetyltransferase KAT6A, both winged helices, GST fusion (KAT6A, Homo sapiens, UniProt Q92794, residues 1-181)
Notes: 8-mer, flanks averaged, mean of 2 arrays, mostly near background
Residues (chain): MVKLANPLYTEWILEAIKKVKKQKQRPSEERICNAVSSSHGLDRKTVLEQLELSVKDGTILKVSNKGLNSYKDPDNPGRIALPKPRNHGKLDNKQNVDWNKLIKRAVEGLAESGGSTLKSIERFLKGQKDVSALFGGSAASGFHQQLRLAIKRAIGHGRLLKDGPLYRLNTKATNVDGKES
AAGGCCCC: 0.0979
AAACAGTC: -0.00539
AGTACCAT: -0.0809
ACGTGTTC: 0.0151
CTTATCAA: -0.143
GCGCCAAC: 0.234
ATATGTTC: 0.0358
AACTTTCC: -0.179
CCGCACAG: 0.139
CATGAATA: -0.0355
ATCTATAG: -0.0605
CGAAGATC: -0.00579
TGTCTCAA: -0.121
GTATTTAA: -0.0595
TAAGCGAA: 0.0626
GATCGGGC: 0.195
CAACGTAG: -0.144

Some of these lines once more (study 5):
ATCTATAG: -0.0605
GTATTTAA: -0.0595
AAACAGTC: -0.00539
CTTATCAA: -0.143
GATCGGGC: 0.195
CGAAGATC: -0.00579
AACTTTCC: -0.179
